Published values of several laboratories.
Every numbered part comes from another study and shows a few of its results, in no order. Values joined by “and” are separate records of one study, mostly repeats; a detail may differ.
Chain of UniProt Q02763 (whole entry, looked up): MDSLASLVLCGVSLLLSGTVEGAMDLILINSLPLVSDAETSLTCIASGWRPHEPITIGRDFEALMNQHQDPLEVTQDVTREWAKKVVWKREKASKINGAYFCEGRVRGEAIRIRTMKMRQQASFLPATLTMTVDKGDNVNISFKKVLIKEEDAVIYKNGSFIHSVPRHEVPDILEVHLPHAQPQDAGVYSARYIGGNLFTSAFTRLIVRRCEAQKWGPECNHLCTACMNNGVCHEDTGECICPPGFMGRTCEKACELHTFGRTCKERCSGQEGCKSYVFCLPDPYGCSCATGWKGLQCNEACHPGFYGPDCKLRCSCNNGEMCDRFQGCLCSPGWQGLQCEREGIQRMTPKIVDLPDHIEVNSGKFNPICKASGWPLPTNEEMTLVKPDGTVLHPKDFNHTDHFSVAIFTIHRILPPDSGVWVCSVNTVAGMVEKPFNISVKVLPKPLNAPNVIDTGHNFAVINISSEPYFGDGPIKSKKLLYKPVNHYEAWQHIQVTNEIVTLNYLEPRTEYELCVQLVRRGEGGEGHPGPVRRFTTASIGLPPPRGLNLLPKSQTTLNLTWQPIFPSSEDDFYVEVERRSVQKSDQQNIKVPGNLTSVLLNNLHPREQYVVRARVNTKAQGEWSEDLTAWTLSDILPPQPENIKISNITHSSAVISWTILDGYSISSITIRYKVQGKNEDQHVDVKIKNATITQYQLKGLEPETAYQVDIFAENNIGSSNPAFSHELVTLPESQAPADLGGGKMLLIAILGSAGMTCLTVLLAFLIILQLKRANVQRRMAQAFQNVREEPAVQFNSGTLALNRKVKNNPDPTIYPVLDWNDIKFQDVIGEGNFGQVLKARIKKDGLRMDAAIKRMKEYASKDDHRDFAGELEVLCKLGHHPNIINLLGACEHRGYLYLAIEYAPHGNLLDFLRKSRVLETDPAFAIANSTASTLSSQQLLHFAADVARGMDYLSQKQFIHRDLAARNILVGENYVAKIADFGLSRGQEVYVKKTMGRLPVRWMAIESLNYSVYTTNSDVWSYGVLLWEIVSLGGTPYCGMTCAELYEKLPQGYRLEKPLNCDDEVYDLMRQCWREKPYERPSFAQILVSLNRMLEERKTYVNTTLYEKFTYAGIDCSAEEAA
Chain of UniProt O00506 (whole entry, looked up): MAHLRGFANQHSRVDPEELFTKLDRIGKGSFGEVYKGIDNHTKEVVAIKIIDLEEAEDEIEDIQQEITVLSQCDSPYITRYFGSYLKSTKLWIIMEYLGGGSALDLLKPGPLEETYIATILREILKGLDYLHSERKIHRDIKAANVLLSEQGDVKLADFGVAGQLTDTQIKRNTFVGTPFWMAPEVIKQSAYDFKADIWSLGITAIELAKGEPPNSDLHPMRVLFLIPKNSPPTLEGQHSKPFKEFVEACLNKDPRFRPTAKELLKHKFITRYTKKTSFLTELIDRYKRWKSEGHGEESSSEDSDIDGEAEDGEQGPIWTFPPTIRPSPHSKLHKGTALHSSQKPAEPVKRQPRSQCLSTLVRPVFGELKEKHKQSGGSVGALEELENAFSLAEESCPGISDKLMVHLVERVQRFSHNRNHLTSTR
Chain of UniProt P51955 (whole entry, looked up): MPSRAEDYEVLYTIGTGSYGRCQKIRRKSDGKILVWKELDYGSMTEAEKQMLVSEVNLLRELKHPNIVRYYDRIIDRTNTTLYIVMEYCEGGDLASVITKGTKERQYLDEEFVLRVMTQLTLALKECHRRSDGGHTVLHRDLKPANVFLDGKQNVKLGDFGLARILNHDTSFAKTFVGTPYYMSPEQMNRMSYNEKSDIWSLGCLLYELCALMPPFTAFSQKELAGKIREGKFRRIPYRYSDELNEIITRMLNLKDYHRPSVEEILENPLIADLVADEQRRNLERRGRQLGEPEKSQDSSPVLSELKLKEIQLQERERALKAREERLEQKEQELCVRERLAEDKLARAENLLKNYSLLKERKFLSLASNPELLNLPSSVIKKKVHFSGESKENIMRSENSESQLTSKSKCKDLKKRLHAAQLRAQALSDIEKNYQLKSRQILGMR
Chain of UniProt Q04771 (whole entry, looked up): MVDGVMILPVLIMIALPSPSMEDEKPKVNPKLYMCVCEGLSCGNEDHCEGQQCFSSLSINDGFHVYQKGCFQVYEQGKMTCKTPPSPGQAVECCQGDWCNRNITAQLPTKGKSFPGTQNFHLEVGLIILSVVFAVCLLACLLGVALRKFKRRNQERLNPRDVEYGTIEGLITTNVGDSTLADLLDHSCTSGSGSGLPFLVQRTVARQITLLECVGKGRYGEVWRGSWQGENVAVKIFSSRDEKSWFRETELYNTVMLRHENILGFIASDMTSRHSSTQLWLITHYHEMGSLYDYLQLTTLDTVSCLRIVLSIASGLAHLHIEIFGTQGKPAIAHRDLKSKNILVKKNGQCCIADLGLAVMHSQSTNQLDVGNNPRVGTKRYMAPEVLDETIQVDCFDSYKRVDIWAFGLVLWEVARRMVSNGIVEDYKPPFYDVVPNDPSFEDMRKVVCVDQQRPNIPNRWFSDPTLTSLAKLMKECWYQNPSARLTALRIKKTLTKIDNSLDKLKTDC
Chain of UniProt Q96PY6 (whole entry, looked up): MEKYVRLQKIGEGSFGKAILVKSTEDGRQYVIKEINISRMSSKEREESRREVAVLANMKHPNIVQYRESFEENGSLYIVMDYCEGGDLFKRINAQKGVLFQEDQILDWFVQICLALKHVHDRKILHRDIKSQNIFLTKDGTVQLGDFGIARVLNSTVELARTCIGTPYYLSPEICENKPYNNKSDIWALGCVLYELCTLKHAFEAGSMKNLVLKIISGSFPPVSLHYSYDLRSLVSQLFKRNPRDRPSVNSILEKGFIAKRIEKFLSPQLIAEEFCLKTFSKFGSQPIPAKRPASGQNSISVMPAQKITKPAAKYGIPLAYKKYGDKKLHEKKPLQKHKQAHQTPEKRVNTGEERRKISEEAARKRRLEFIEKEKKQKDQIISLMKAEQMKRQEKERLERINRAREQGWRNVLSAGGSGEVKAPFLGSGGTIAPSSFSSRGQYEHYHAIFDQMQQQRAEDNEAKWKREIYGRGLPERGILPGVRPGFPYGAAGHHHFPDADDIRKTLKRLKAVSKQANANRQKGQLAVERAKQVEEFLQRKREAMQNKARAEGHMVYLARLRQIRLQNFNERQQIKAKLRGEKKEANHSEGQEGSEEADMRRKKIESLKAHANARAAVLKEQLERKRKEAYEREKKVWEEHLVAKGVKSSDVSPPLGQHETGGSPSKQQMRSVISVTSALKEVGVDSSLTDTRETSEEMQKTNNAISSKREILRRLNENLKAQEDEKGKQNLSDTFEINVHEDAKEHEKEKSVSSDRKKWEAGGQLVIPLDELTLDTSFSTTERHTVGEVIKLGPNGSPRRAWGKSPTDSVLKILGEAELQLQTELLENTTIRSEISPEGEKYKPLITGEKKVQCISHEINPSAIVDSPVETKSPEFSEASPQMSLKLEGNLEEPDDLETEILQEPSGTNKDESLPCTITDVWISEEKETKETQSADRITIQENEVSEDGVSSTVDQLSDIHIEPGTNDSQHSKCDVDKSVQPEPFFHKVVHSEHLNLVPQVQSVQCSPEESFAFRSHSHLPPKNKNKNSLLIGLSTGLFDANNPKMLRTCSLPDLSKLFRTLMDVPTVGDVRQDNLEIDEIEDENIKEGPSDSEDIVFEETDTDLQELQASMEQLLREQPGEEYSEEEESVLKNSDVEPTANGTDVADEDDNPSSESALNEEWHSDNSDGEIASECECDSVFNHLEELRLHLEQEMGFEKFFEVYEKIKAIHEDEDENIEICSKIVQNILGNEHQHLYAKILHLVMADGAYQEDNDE
Chain of UniProt P48730 (whole entry, looked up): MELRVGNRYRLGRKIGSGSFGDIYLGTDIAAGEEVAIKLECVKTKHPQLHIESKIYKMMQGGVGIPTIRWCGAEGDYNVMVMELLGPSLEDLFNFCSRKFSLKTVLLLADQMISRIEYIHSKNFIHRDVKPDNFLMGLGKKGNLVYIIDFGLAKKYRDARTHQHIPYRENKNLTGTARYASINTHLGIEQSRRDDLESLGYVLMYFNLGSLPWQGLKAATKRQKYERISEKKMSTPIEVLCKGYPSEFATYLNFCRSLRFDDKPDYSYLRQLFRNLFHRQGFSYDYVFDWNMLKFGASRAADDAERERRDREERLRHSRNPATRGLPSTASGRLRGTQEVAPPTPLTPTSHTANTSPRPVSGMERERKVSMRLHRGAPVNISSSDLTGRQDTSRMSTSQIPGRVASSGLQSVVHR

Block 1
Cell line: mouse MPNST tumor cells
Technique: high-content immunofluorescence imaging
Measured: nuclear SOX9
Concentration: 10 µM
Time: 12 h
Setting: mean of 2 replicates
Baseline: DMSO control
Direction: higher = more nuclear SOX9
`COc1ccccc1OCCNCC(O)COc1cccc2[nH]c3ccccc3c12` (stereo not drawn) — result for “nuclear SOX9 intensity”: 188 % of DMSO.
`COc1cccc(OC)c1-c1cc(C(=O)NC2(C(=O)O)C3CC4CC(C3)CC2C4)nn1-c1ccnc2cc(Cl)ccc12` (stereo not drawn): “nuclear SOX9 intensity” 98.4 % of DMSO.
For `CCN(c1ccccc1)c1cc(=NC)n(C)c(C)n1`, “nuclear SOX9 intensity” read 92 % of DMSO.
`CCc1ccc2c(-c3cccc(Cl)c3)nc(=O)n(CC)c2n1`: “nuclear SOX9 intensity” 103 % of DMSO.
For `CCCC(=O)Nc1cccc(NC(=O)c2ccccc2Br)c1`, “nuclear SOX9 intensity” read 95.9 % of DMSO.
For `CC(C)Nc1cccnc1N1CCN(C(=O)c2cc3cc(NS(C)(=O)=O)ccc3[nH]2)CC1`, “nuclear SOX9 intensity” read 107 % of DMSO and 97.4 % of DMSO.
For `CC(=O)N1CCN(c2ccc(OCC3COC(Cn4ccnc4)(c4ccc(Cl)cc4Cl)O3)cc2)CC1` (stereo not drawn), “nuclear SOX9 intensity” read 134 % of DMSO.
`CCCCC(=O)NCCc1c(Cc2ccccc2)[nH]c2ccccc12` — result for “nuclear SOX9 intensity”: 106 % of DMSO.
Under “nuclear SOX9 intensity”, `c1cnc(N2CCN(Cc3ccc4c(c3)OCO4)CC2)nc1` is recorded as 94.6 % of DMSO.
`CC12CC3CC(C)(C1)CC(N)(C3)C2` — result for “nuclear SOX9 intensity”: 102 % of DMSO and 108 % of DMSO.
`COCCOCc1ccc(-c2cc3onc(-c4ccccc4)c3c(=O)n2C)cc1` — result for “nuclear SOX9 intensity”: 104 % of DMSO.
`COc1ccc2[nH]c([S+]([O-])Cc3ncc(C)c(OC)c3C)nc2c1` (stereo not drawn) — result for “nuclear SOX9 intensity”: 107 % of DMSO.
Under “nuclear SOX9 intensity”, `COc1ccc(C2CC(c3ccccc3)=NN2c2ccc(S(N)(=O)=O)cc2)cc1` (stereo not drawn) is recorded as 110 % of DMSO.
`Nc1nc(SCCc2ccc(S(=O)(=O)O)cc2)nc2c1ncn2[C@@H]1O[C@H](CO)[C@@H](O)[C@@H]1O`: “nuclear SOX9 intensity” 88.4 % of DMSO.
`CS(=O)(=O)OCCCCOS(C)(=O)=O`: “nuclear SOX9 intensity” 137 % of DMSO and 100 % of DMSO.
`CC(C)NCC(O)c1ccc(O)c(O)c1` (single isomer, unassigned; (-)): “nuclear SOX9 intensity” 98.2 % of DMSO.
For `Cc1cc(-c2ccccc2)nnc1NCCN1CCOCC1`, “nuclear SOX9 intensity” read 100 % of DMSO.
For `Cc1nnc2c3ccccc3c(N[C@@H](C)[C@H](c3ccccc3)N(C)C)nn12`, “nuclear SOX9 intensity” read 114 % of DMSO and 105 % of DMSO.

Block 2
Compound: Cc1sc(C(=O)NC2COC2)cc1-n1cc(NC(=O)Nc2c(F)cccc2Cl)cn1
Observed: enzyme activity
Concentration: 10 µM
Baseline: untreated control
DAPK1 (Homo sapiens, UniProt P53355) — remaining activity: 102%.
The remaining activity was 69.2% (STK25 (Homo sapiens, UniProt O00506)).
The remaining activity was 113% (EPHA4 (Homo sapiens, UniProt P54764)).
For MAPK12 (Homo sapiens, UniProt P53778): remaining activity read 80.8%.
The remaining activity was 104% (PLK1 (Homo sapiens, UniProt P53350)).
The remaining activity was 84.9% (BMPR1A (Homo sapiens, UniProt P36894)).
MAP4K5 (Homo sapiens, UniProt Q9Y4K4) — remaining activity: 96.6%.
For TEK (Homo sapiens, UniProt Q02763): remaining activity read 85.9%.
It gave 86.5% for remaining activity (PKN2 (Homo sapiens, UniProt Q16513)).
For Protein kinase C beta type, isoform beta-I (PRKCB, Homo sapiens, UniProt P05771): remaining activity read 105%.
For DYRK3 (Homo sapiens, UniProt O43781): remaining activity read 99.2%.
For NEK2 (Homo sapiens, UniProt P51955): remaining activity read 84.4%.
It gave 105% for remaining activity (CSNK1A1L (Homo sapiens, UniProt Q8N752)).
For WNK2 (Homo sapiens, UniProt Q9Y3S1): remaining activity read 90.5%.
For PAK5 (Homo sapiens, UniProt Q9P286): remaining activity read 103%.
It gave 78.7% for remaining activity (Myosin-IIIb (MYO3B, Homo sapiens, UniProt Q8WXR4)).
For CAMK2D (Homo sapiens, UniProt Q13557): remaining activity read 90.4%.
For FGR (Homo sapiens, UniProt P09769): remaining activity read 71%.

Block 3
SMILES: CNCc1ccccc1-c1csc([C@H](C)Nc2nc(C)nc3cc(OC)c(OC)cc23)c1
Observed: cell-free assay
Technique: competition with immobilised ligand
Concentration: 1 µM
MAP3K7 (Homo sapiens, UniProt O43318) — remaining binding: 75%.
The remaining binding was 100% (MAP3K5 (Homo sapiens, UniProt Q99683)).
The remaining binding was 100% (STK25 (Homo sapiens, UniProt O00506)).
It gave 82% for remaining binding (CAMKK2 (Homo sapiens, UniProt Q96RR4)).
The remaining binding was 100% (NEK1 (Homo sapiens, UniProt Q96PY6)).
For TLK2 (Homo sapiens, UniProt Q86UE8): remaining binding read 100%.
CSNK1D (Homo sapiens, UniProt P48730) — remaining binding: 95%.
For ROS1 (Homo sapiens, UniProt P08922): remaining binding read 100%.
The remaining binding was 100% (WEE1 (Homo sapiens, UniProt P30291)).
STK32A (Homo sapiens, UniProt Q8WU08) — remaining binding: 91%.
ACVR1 (Homo sapiens, UniProt Q04771) — remaining binding: 100%.
For PAK1 (Homo sapiens, UniProt Q13153): remaining binding read 99%.
BLK (Homo sapiens, UniProt P51451) — remaining binding: 94%.
It gave 100% for remaining binding (AKT1 (Homo sapiens, UniProt P31749)).
For Tyrosine-protein kinase ABL1, phosphorylated (ABL1, Homo sapiens, UniProt P00519, T315I): remaining binding read 87%.
The remaining binding was 81% (EGFR (Homo sapiens, UniProt P00533, del752-759)).
It gave 100% for remaining binding (FES (Homo sapiens, UniProt P07332)).
It gave 100% for remaining binding (IGF1R (Homo sapiens, UniProt P08069)).
For TEK (Homo sapiens, UniProt Q02763): remaining binding read 100%.
The remaining binding was 93% (Ribosomal protein S6 kinase alpha-1, N-terminal kinase domain (RPS6KA1, Homo sapiens, UniProt Q15418)).
PIK3CA (Homo sapiens, UniProt P42336, E542K) — remaining binding: 88%.

Block 4
Target: Dual specificity protein kinase TTK (TTK, Homo sapiens, UniProt P33981)
Chain of UniProt P33981 (whole entry, looked up): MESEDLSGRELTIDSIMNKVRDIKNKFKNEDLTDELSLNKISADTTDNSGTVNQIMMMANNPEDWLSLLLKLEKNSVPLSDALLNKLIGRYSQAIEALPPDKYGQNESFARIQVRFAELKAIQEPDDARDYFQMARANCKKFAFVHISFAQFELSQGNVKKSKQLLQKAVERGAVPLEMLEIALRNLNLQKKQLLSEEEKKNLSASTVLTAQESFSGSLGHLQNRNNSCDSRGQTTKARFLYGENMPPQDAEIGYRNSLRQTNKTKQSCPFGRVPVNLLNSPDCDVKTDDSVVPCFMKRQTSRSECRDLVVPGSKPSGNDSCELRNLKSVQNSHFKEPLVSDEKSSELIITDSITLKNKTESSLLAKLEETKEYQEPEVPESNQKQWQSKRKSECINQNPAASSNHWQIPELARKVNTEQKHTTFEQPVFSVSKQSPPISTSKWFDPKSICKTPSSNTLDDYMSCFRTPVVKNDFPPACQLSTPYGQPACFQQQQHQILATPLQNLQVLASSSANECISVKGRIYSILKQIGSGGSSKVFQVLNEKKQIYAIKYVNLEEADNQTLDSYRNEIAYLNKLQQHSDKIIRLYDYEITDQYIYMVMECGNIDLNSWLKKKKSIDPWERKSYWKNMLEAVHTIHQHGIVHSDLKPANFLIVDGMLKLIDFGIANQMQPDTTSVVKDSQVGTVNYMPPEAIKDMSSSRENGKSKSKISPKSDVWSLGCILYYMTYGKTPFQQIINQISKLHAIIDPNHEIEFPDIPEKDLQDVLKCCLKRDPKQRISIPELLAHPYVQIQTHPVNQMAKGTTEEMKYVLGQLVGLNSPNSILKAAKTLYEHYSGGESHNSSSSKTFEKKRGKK
Observed: enzyme activity
Mode: inhibitor
Concentration: 0.5 µM
Baseline: control
With `CSc1nc(-c2ccnc(N[C@@H](C)c3ccccc3)c2)c(-c2ccc(F)cc2)[nH]1` (racemic) the remaining activity was 102%.
For `CC#CC(=O)Nc1cc2c(Nc3ccc(F)c(Cl)c3)ncnc2cn1`, the remaining activity was 104%.
`Nc1ncnc2c1cnn2-c1ccccc1` has a remaining activity of 90.6%.
The remaining activity of `CCCC(=O)Oc1ccc2[nH]c(C(=O)c3cc4ccccc4[nH]3)cc2c1` is reported as 85.7%.
With `CC[n+]1c(/C=C/N(C)c2ccccc2)n(-c2ccccc2)c2ccc(-c3nc4ccccc4s3)cc21` the remaining activity was 96.6%.
The remaining activity of `NC(=O)c1ccc(N(C(N)=O)c2c(F)cccc2F)nc1-c1ccc(F)cc1F` is reported as 98.8%.
`COc1cc(Nc2c(C#N)cnc3cc(OCCCN4CCN(C)CC4)c(OC)cc23)c(Cl)cc1Cl` gave a remaining activity of 110%.
For `Nc1nccc(-c2c(-c3ccc(F)cc3)ncn2C2CCNCC2)n1`, the remaining activity was 107%.
`O=S(=O)(NCCNC/C=C/c1ccc(Br)cc1)c1cccc2cnccc12` gave a remaining activity of 99.7%.
`CC(C)(C)n1nc(Cc2cccc3ccccc23)c2c(N)ncnc21` has a remaining activity of 84.5%.
`CCc1[nH]c(-c2ccc(OC)cc2)nc1-c1ccncc1` gave a remaining activity of 105%.
The remaining activity of `CC(=O)c1ccc(N2CCOCC2)cc1O` is reported as 103%.
`Fc1ccc(-c2nc3n(c2-c2ccncc2)CCS3)cc1` has a remaining activity of 100%.
With `Cc1ccc(NC2=CC(=O)c3sc(C)nc3C2=O)cc1` the remaining activity was 98.9%.
`COc1ccc(S(=O)(=O)N(CCO)c2ccccc2CN(C)CC=Cc2ccc(Cl)cc2)cc1` has a remaining activity of 83.3%.
With `N#CC(=C(N)Sc1ccc(N)cc1)c1ccccc1C(F)(F)F` the remaining activity was 93.6%.
With `O=C1Cc2c([nH]c3ccc([N+](=O)[O-])cc23)-c2ccccc2N1` the remaining activity was 87.4%.
With `O=C1NC(=O)C(c2c[nH]c3ccccc23)=C1c1c[nH]c2ccccc12` the remaining activity was 106%.
The remaining activity of `Oc1ccc(Nc2nc(-c3ccc(Cl)cc3)cs2)cc1` is reported as 87.6%.
`Cc1cc(Nc2nc(-c3ccccc3)nc3ccccc23)n[nH]1` gave a remaining activity of 102%.
The remaining activity of `Cc1cncc2cccc(S(=O)(=O)N3CCCN(C(=O)CN)C[C@@H]3C)c12` is reported as 111%.

For quick reference, copied from above (block 3):
The remaining binding was 100% (WEE1 (Homo sapiens, UniProt P30291)).
ACVR1 (Homo sapiens, UniProt Q04771) — remaining binding: 100%.
The remaining binding was 100% (NEK1 (Homo sapiens, UniProt Q96PY6)).
For ROS1 (Homo sapiens, UniProt P08922): remaining binding read 100%.
It gave 100% for remaining binding (AKT1 (Homo sapiens, UniProt P31749)).
For PAK1 (Homo sapiens, UniProt Q13153): remaining binding read 99%.
For TEK (Homo sapiens, UniProt Q02763): remaining binding read 100%.
MAP3K7 (Homo sapiens, UniProt O43318) — remaining binding: 75%.
The remaining binding was 93% (Ribosomal protein S6 kinase alpha-1, N-terminal kinase domain (RPS6KA1, Homo sapiens, UniProt Q15418)).
STK32A (Homo sapiens, UniProt Q8WU08) — remaining binding: 91%.
